# Published values pooled from the literature.
# Parts stem from different laboratories: compare values within a part only.
# UniProt P00519, sequence (whole entry, unmodified, looked up): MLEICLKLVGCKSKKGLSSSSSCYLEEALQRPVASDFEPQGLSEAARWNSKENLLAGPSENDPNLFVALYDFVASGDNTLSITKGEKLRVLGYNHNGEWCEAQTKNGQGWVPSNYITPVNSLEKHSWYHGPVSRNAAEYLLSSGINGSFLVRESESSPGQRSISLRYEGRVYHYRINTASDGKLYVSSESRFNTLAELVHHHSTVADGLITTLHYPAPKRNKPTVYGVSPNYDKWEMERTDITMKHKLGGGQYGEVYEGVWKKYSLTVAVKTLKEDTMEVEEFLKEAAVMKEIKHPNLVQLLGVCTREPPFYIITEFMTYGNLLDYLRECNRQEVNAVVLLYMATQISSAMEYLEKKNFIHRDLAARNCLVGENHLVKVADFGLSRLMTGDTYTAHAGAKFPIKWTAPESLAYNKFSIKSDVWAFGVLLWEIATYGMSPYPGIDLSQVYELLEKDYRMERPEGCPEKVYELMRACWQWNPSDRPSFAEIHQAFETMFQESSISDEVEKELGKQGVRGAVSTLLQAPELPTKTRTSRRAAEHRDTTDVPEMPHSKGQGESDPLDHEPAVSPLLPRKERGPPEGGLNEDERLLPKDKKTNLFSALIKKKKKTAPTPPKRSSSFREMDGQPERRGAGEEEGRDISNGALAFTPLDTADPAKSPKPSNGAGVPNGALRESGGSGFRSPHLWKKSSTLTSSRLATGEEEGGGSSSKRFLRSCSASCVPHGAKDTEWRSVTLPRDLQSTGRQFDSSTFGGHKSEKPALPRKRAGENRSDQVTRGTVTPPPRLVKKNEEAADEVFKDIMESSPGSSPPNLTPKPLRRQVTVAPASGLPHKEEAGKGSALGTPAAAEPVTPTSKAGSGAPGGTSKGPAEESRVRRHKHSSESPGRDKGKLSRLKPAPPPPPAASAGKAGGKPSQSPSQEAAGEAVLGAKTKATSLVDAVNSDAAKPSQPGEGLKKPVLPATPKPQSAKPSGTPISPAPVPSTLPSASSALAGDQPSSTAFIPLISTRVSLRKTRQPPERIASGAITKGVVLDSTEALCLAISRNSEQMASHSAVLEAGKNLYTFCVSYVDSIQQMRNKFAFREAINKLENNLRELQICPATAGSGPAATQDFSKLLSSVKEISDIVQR

# Study 1
# Target: PABPC1L2, full length, GST fusion (mouse, UniProt A0ABA7IW68)
# Method: RNAcompete
# Molecule type: RNA
# Medium: in vitro
# Tested at: 20 nM
# Notes: 7-mer, probes averaged, single round
# Relative to: mean of 7-mers
# Direction: higher = stronger binding
# Construct (chain): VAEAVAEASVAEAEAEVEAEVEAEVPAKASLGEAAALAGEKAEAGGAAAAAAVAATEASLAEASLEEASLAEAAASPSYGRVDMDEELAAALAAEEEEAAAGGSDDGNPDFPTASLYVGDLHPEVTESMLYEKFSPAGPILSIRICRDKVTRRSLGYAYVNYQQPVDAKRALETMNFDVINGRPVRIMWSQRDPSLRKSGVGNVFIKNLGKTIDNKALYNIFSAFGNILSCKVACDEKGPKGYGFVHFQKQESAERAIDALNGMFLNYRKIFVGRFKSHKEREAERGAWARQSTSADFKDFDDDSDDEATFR
Strand,7-mer Z-score
ACAGAGA,0.336
AGUUGUC,-0.338
GGCUCCU,-0.224
AUGGUAU,-0.0573
GUAUCGU,-0.32
UCAGUCA,-0.251
ACAGGGA,0.49
AUCACGA,-0.012

# Study 2
# Target: RING finger protein unkempt homolog, zinc fingers 1-6, GST-SBP tag (UNK, Homo sapiens, UniProt Q9C0B0, residues 30-357)
# UniProt Q9C0B0, sequence (30-357, looked up): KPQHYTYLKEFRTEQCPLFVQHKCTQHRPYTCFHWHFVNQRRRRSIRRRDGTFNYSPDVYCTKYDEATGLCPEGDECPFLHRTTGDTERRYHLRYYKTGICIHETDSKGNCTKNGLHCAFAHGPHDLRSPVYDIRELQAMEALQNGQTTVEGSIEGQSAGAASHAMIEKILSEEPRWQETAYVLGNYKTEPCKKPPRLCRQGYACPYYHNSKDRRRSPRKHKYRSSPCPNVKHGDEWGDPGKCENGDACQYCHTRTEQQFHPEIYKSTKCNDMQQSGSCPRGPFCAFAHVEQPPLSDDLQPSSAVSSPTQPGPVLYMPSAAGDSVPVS
# Method: RNA Bind-n-Seq
# Molecule type: RNA
# Medium: in vitro
# Tested at: not given
# Notes: RNA with constant flanks, human and mouse sites, ends assumed
# Relative to: input RNA pool
# Direction: higher = stronger binding
Strand,bound/input enrichment [ratio]
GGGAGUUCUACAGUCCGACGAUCUUGAAUCUGCCCACCUUCAGUGUCCGGGUCAUUGACAAAGAUGGCAUCCACAAUCUGGAGAACAUUGCCUUCCCUAAGCGGGACUCCUAACGUCACGUCCUUCCCUCCCACUCACCAGGGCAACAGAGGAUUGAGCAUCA,0.229
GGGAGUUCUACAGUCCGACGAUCAACUGCCUAAAUUGUUGGGUCUGCUUCUGUGGUCUAUGCAUAUUUUAGCAUAAAUUUAGUUGAUAUUGCAGCCAGAGUAUUUACCUAGAACCAGACUAACCUAUAGCCCCUAUAAAUGCUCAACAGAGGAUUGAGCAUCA,9.71
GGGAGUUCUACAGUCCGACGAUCCGGACCCUGAUCCCACGCUACUUCCGCAGCAUCUUUGAGGGGGGUGCUACGGAGCUGUACUAUGUUCUUAAGCACCCCAAGGAGGCAUUCCACAGCAACUUUGUGUCCCUCGACUGUGACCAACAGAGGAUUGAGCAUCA,0.143
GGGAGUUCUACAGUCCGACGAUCGAUGAGGGUCAGAAGCCUUACCUGGUACAGCGGAGAGGAGCUGAAUUUGCCUUAACAACUAUAGUGAAGCAUUUUGGUGCUGAAAUGGCAGUGAAGUUGCCACAUCUUUGGGAUGCUAUGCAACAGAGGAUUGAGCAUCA,0.265
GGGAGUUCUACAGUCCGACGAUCCUGAGCCCAGGGUCCCAAAUCAACGUGCUGGAAGACCCAGGCUACCUAGAUCUCACACAAAUAGAAGCAAGCAAACCUCACAGUGCCCAGUUUUUGCUACCAGUUGAGAUGUUUGGUCCUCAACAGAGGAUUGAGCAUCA,0.217
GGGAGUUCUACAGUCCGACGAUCAGUAUAUCCAGCAGGGAUGUUCAGCCUGUUGCCUAUGAAGAGCCUAAACAUUGGUGUUCAAUAGUCUACUAUGAAUUAAACAAUCGUGUUGGAGAAGCUUUUCAUGCAUCUUCUACUAGUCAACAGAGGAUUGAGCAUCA,0.315
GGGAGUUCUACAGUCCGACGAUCACAUUAAAGUCCUAAGUCAUCUAAGCCAUUCAUUGCCUGUGAAUUAUUCUGCUUGCUUUUUUAGUCAGGUGCUGCUUUUAAACAUUCUGAUGGGGAGCCUAGGGUUUAAAAUUAGCCUGUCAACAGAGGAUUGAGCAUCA,1.56
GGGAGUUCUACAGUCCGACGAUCCUCCUCCGUACUUCUCUCUGAAAGGAAUUUUGUCGUGUUAACCCUAAAGAGAGUGUCCUUAAUAGCAGUGAGCGCUUGGAAGCUUCUCCACUGGUACAUUGGGUUUUCUGUUGGGUGAGUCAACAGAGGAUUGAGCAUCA,0.271

# Study 3
# Target: Myotonin-protein kinase (DMPK, Homo sapiens, UniProt Q09013)
# UniProt Q09013, sequence (whole entry, looked up): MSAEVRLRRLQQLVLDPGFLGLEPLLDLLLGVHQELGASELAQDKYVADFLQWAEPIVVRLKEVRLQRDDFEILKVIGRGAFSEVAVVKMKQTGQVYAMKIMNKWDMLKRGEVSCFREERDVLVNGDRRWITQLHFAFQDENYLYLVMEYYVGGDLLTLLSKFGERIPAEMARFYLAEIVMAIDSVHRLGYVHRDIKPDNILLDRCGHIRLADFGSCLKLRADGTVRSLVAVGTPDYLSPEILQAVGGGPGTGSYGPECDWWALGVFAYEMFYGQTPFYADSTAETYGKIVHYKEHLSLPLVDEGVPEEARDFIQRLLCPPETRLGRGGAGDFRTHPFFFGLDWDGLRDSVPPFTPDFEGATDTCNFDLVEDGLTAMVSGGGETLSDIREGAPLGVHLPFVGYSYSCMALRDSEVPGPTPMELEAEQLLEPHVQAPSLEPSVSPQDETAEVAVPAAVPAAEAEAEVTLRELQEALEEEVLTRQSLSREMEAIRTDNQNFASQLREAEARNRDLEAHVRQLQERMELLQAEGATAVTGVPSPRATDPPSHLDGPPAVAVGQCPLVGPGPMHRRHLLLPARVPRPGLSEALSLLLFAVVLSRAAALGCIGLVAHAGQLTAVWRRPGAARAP
# Read-out: enzyme activity
# Mode: inhibitor
# Tested at: 0.5 µM
# Relative to: control
Compound,remaining activity
Cn1nc2c3c(cccc31)C(=O)c1ccccc1-2,107%
CCN(CC)C(=O)c1ccc(Nc2nc(OCC3CCCCC3)c3[nH]cnc3n2)cc1,105%
O=c1cc(-c2cccc3c2Sc2ccccc2S3)oc(N2CCOCC2)c1,94.8%
COc1cc2ncnc(Nc3ccc(O)c(Br)c3)c2cc1OC,101%
Cc1nc2cc3nc(-c4cccs4)cnc3cc2n1C,100%
O=C1c2ccccc2-c2n[nH]c3cccc1c23,99%
N#C/C(=C\c1ccc(O)c(O)c1)C(=O)NCc1ccccc1,99.7%
O=C(NC(NC(=S)Nc1ccc(F)c([N+](=O)[O-])c1)C(Cl)(Cl)Cl)C(c1ccccc1)c1ccccc1 (centres unmarked),85.5%
Cc1cc2ncc(-c3ccccc3)nc2cc1C,102%
C[C@@H]1CCN(C(=O)CC#N)C[C@@H]1N(C)c1ncnc2[nH]ccc12,108%
CCOc1nc(NC(=O)Cc2cc(OC)ccc2OC)cc(N)c1C#N,99.5%
CN(C)C[C@H]1CCn2c(c(C3=C(c4cn(C)c5ccccc45)C(=O)NC3=O)c3ccccc32)C1,106%

# Further values, each from its own experiment
SMILES,target,test,setting,measurement,result
N#CC1(c2ccccn2)CCN(Cc2cc(C(=O)O)c(=O)n3ccccc23)CC1,"Tyrosine-protein kinase ABL1, phosphorylated (ABL1, Homo sapiens, UniProt P00519, E255K)","binding, competition with immobilised ligand",1 µM,remaining binding,100%

# Some of these lines once more (study 1):
Strand,7-mer Z-score
GGCUCCU,-0.224
AUGGUAU,-0.0573
GUAUCGU,-0.32
UCAGUCA,-0.251
